Assay results from different studies.
“And” joins repeats or separate records; there may be more than shown. ± gives the spread as reported.
SLC22A2: Solute carrier family 22 member 2 (SLC22A2, Homo sapiens, UniProt O15244)
Sequence of UniProt O15244 (whole entry, looked up): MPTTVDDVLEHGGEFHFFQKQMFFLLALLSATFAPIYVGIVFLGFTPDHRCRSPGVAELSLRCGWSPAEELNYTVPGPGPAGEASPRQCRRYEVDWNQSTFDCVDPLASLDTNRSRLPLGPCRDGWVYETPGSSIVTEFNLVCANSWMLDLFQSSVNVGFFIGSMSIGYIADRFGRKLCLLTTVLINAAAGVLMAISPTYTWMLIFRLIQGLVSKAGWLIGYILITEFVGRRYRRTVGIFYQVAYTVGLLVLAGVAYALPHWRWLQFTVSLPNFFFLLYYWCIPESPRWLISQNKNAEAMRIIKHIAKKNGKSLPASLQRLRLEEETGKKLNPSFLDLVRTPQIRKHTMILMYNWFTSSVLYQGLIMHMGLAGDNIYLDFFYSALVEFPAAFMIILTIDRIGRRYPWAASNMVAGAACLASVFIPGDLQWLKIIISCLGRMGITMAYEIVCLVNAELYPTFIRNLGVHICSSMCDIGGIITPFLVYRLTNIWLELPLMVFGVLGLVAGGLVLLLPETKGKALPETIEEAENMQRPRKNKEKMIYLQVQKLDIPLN
CYP2E1: Cytochrome P450 2E1 (CYP2E1, Homo sapiens, UniProt P05181)
Sequence of UniProt P05181 (whole entry, looked up): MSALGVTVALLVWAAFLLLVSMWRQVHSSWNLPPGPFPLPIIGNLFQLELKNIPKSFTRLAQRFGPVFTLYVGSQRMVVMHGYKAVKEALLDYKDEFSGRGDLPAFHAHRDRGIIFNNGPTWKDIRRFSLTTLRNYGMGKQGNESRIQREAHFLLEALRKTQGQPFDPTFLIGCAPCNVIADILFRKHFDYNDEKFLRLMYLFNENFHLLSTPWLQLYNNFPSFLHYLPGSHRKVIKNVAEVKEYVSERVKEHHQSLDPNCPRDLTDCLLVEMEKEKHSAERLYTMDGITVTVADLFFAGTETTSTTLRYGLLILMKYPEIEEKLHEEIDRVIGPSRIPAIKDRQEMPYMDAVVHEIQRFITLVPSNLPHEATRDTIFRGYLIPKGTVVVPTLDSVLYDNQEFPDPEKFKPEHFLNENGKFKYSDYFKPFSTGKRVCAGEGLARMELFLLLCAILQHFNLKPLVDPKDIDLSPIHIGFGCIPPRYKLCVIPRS
CYP2C19: Cytochrome P450 2C19 (CYP2C19, Homo sapiens, UniProt P33261)
Sequence of UniProt P33261 (whole entry, looked up): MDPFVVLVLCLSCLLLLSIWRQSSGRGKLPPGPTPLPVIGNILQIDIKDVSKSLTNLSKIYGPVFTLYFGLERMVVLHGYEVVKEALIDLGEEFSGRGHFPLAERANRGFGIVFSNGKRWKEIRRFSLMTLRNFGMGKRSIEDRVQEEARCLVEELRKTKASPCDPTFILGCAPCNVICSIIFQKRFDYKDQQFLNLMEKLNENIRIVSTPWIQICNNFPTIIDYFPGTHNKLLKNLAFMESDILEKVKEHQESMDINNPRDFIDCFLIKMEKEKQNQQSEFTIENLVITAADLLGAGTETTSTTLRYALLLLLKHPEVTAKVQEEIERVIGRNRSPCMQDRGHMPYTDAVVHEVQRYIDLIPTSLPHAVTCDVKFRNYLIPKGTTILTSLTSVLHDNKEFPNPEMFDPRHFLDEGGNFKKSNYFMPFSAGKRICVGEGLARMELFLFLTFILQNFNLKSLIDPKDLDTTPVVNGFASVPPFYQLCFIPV
Abcg2: Broad substrate specificity ATP-binding cassette transporter ABCG2 (Abcg2, Rattus norvegicus, UniProt Q80W57)
Sequence of UniProt Q80W57 (whole entry, looked up): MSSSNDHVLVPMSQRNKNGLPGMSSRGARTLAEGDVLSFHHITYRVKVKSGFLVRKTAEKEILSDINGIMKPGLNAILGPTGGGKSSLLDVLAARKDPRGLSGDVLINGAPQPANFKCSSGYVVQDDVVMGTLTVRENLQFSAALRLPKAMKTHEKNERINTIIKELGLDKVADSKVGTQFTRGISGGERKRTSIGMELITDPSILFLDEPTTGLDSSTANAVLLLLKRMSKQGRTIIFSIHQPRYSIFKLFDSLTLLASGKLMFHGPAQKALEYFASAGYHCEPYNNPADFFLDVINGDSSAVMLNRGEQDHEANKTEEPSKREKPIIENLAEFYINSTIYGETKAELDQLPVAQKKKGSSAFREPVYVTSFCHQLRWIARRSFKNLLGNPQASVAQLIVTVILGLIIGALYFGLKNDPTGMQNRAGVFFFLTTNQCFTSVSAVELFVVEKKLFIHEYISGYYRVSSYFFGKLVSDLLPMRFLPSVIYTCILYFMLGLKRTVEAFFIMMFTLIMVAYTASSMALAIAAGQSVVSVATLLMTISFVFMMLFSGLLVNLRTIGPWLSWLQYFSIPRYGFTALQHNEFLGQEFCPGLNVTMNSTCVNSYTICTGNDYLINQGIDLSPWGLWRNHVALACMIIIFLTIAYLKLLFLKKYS
CYP2C9: Cytochrome P450 2C9 (CYP2C9, Homo sapiens, UniProt P11712)
Sequence of UniProt P11712 (whole entry, looked up): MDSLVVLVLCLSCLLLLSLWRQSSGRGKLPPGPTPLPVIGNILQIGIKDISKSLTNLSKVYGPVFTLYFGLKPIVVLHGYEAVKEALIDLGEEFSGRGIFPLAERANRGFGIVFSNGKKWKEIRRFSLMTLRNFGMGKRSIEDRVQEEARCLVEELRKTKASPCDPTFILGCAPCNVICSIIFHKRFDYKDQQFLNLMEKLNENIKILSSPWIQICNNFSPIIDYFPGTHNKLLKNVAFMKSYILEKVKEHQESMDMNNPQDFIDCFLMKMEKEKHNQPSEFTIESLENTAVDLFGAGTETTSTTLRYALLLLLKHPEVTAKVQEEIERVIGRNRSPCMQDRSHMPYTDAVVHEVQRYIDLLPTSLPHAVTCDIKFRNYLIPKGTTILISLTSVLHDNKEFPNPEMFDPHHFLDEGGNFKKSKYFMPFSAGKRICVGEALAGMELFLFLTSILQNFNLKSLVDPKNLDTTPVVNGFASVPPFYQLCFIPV
Sequence of UniProt O15245 (whole entry, looked up): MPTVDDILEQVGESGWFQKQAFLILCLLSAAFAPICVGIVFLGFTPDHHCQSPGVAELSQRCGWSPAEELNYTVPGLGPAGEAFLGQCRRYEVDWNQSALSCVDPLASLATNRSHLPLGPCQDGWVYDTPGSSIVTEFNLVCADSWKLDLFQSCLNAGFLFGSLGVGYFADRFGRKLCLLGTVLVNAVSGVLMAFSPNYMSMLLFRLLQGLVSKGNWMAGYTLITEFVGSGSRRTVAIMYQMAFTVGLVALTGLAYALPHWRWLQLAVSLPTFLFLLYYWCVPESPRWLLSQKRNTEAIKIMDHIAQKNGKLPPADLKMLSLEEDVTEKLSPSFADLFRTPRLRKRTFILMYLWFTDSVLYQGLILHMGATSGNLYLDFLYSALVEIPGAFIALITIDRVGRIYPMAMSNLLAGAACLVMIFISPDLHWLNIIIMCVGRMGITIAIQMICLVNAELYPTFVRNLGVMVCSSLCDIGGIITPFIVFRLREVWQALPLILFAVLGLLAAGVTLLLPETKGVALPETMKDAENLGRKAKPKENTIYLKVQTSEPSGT
Sequence of UniProt Q8TCC7 (whole entry, looked up): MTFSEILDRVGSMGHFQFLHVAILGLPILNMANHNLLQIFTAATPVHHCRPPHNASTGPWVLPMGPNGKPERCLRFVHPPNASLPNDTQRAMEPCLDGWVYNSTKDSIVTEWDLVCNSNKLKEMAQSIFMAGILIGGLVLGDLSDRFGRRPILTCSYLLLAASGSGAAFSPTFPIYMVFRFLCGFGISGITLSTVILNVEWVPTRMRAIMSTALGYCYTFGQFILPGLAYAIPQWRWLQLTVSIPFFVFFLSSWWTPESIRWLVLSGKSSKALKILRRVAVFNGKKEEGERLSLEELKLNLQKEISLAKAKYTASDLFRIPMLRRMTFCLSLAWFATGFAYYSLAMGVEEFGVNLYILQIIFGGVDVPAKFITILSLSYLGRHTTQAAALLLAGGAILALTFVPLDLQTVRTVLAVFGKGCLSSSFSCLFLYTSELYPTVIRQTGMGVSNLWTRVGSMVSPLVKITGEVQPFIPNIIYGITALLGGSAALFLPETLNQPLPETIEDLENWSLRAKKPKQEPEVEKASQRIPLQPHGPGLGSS
Sequence of UniProt P11509 (whole entry, looked up): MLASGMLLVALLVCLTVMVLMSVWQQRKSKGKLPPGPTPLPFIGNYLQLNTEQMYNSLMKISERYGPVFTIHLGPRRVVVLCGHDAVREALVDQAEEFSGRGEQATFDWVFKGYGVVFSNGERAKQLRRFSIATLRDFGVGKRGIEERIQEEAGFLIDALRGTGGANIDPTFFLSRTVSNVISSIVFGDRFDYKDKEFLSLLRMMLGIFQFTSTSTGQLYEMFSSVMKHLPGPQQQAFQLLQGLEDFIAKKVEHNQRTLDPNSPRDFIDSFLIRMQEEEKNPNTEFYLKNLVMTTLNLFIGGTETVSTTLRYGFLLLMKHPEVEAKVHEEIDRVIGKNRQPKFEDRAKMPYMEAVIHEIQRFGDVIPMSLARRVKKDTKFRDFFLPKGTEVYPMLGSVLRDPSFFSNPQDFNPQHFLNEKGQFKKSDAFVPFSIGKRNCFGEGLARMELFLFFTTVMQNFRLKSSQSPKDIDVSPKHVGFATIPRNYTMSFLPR
Sequence of UniProt Q05421 (whole entry, looked up): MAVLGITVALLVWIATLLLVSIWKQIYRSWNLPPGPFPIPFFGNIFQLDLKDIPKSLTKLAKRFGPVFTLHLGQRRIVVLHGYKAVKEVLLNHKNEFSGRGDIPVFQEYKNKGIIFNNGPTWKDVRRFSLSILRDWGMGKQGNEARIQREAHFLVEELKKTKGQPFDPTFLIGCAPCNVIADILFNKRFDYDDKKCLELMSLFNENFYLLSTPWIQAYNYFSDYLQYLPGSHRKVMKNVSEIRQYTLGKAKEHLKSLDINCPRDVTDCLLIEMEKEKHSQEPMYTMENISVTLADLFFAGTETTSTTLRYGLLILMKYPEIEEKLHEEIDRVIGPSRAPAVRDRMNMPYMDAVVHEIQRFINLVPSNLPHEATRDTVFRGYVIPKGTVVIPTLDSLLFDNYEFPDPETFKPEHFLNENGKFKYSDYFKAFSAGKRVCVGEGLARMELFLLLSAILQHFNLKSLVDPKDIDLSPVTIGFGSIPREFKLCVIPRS

`CS(=O)(=O)c1ccc([C@@H](O)[C@@H](CF)NC(=O)C(Cl)Cl)cc1` — result for “net efflux ratio”: 1.52 ± 0.1 (BCRP (chicken); efflux transport, bidirectional transport; MDCK expressing chicken Abcg2; 20 µM, added: allicin 5 µM preincubated 2 h).
Under uptake, `N=C(NN)Nc1ccc(C(=O)O)cc1` is recorded as “decreased” (SLC22A2; HEK293 expressing SLC22A2; 100 µM, 10 min; baseline: parent compound without biguanide).
`CC[C@H](C)[C@H](NC(=O)[C@H](CCC(=O)O)NC(=O)[C@H](CO)NC(=O)[C@@H](NC(=O)[C@@H](N)CO)C(C)C)C(=O)N[C@@H](CCC(N)=O)C(=O)N[C@@H](CC(C)C)C(=O)N[C@@H](CCSC)C(=O)N[C@@H](Cc1cnc[nH]1)C(=O)N[C@@H](CC(N)=O)C(=O)N[C@@H](CC(C)C)C(=O)NCC(=O)N[C@@H](CCCCN)C(=O)N[C@@H](Cc1cnc[nH]1)C(=O)N[C@@H](CC(C)C)C(=O)N[C@@H](CC(N)=O)C(=O)N[C@@H](CO)C(=O)N[C@@H](CCSC)C(=O)N[C@@H](CCC(=O)O)C(=O)N[C@@H](CCCN=C(N)N)C(=O)N[C@H](C(=O)N[C@@H](CCC(=O)O)C(=O)N[C@@H](Cc1c[nH]c2ccccc12)C(=O)N[C@@H](CC(C)C)C(=O)N[C@@H](CCCN=C(N)N)C(=O)N[C@@H](CCCCN)C(=O)N[C@@H](CCCCN)C(=O)N[C@@H](CC(C)C)C(=O)N[C@@H](CCC(N)=O)C(=O)N[C@@H](CC(=O)O)C(=O)N[C@H](C(=O)N[C@@H](Cc1cnc[nH]1)C(=O)N[C@@H](CC(N)=O)C(=O)N[C@@H](Cc1ccccc1)C(=O)O)C(C)C)C(C)C` — result for “remaining intact compound”: 59% (chymotrypsin (bovine pancreas); proteolytic degradation, HPLC-UV; 0.5 mg/mL, 0.25 h, pH 6.5, 37 °C, added: chymotrypsin with soybean trypsin inhibitor).
The IC50 of `N=C(N)NC(=N)NCC(c1ccccc1)c1ccccc1` is reported as 85.5 µM and 86 µM (SLC22A1 (Homo sapiens, UniProt O15245); transporter uptake, inhibitor, radiometric).
Under “trough plasma concentration”, `O=C(O)CCCCCCCCCCCCC(=O)O` is recorded as 77.7 nM (OATP1B1; human, plasma; concentration not given, 12 h after first cyclosporine dose, genotype TT, added: oral cyclosporine plus pravastatin).
`CCCCCCCC=O` has a Ki of 13 ± 1 µM (CYP2E1; competitive inhibitor; human liver S9; added: p-nitrophenol substrate).
`COc1ccc2[nH]c([S+]([O-])Cc3ncc(C)c(OC)c3C)nc2c1` (centres unmarked) has an AUC(0-inf) of 8.5 ± 3.6 µM·h (CYP2C19; human, plasma; oral, dose not given, day 12, fluoxetine treatment, added: fluoxetine).
`O=C(O)c1cc(/N=N/c2ccc(S(=O)(=O)Nc3ccccn3)cc2)ccc1O` — result for “Cmax fold increase”: 2 fold (Abcg2; substrate; rat, plasma; oral, dose not given, added: elacridar constant infusion; baseline: with over without elacridar).
For `CCCCC=O`, the Ki was 155 ± 13 µM (CYP2E1; competitive inhibitor; human liver S9; added: p-nitrophenol substrate).
`Cc1noc(C)c1Cn1cc(N2C(=O)N(Cc3cccc(O)c3)C(C)(C)C2=O)cn1` has an inhibition of 80% (CYP2C9; enzyme activity, inhibitor, fluorescence; Sf9; 10 µM).
With `O=C(O)c1ccc(O)c(O)c1` the inhibition was over 50% (SLC22A8 (Homo sapiens, UniProt Q8TCC7); transporter uptake, inhibitor; HEK293; 100 µM).
With `CCc1oc2ccccc2c1C(=O)c1ccc(OC)cc1` the IC50 was 115 µM (CYP2E1; p-nitrophenol hydroxylation, inhibitor; 10 min, added: p-nitrophenol 100 µM).
`O=C1C[C@@H](c2ccc(O)cc2)Oc2cc(O)cc(O)c21`: “glucuronidation rate ratio” about 2.5 (UDP-glucuronosyltransferases, rat; Wistar rat, colon microsomes; 10 µM, 30 min, pH 7.4; baseline: jejunum over colon microsomes).
With `CC1=N[C@]2(C(=O)CO)[C@@H](C[C@H]3[C@@H]4C[C@@H](O)C5=CC(=O)C=C[C@]5(C)[C@H]4[C@@H](O)C[C@@]32C)O1` the IC50 was over 50 µM (CYP2C9; pooled human liver microsomes; 30 min preincubation, added: diclofenac probe and NADPH).
`O=C(O)CCCCCCCCCCCCCCC(=O)O` — result for “trough plasma concentration”: 70.3 nM (OATP1B1; human, plasma; concentration not given, 12 h after first cyclosporine dose, genotype TC, added: oral cyclosporine plus pravastatin).
For `O=c1[nH]c(=O)c2[nH]cnc2[nH]1`, the dehydrogenase activity was 2.12 ± 0.48 nmol/min/mg protein (Xdh (Mus musculus, UniProt Q00519); substrate; wild type mouse liver cytosol; 50 µM, pH 7.8).
For `COc1cc(OC)c(Cl)c(CCc2cnc3ccn(S(=O)(=O)c4c[nH]cn4)c3n2)c1Cl`, the inhibition was 99% (CYP2C9; enzyme activity, inhibitor; human, liver microsomes; 10 µM, 20 min, pH 7.4).
For `C=C`, the Km was 9.3 ± 3 µM (Cytochrome P450 2E1 (Cyp2e1, Mus musculus, UniProt Q05421); substrate, headspace gas uptake, item: ethylene oxide formation; B6C3F1 mouse, pooled liver microsomes).
For `Nc1ncn([C@@H]2O[C@H](CO)[C@@H](O)[C@H]2O)c(=O)n1`, the inhibition was 27% (CYP2E1; enzyme activity, inhibitor; human liver microsomes; 100 µM, added: chlorzoxazone 40 µM).
The IC50 of `CN1Cc2c(Cl)cc(Cl)cc2[C@H](c2cccc(S(=O)(=O)NCCOCCOCCNC(=O)NCCCCNC(=O)NCCOCCOCCNS(=O)(=O)c3cccc([C@@H]4CN(C)Cc5c(Cl)cc(Cl)cc54)c3)c2)C1` is reported as 0.68 ± 0.157 µM (human CYP3A4/5; enzyme activity, inhibitor, item: oxidized nifedipine; human liver microsomes; 10 min, added: nifedipine 25 µM).
For `CCCCCCCCC=O`, the Ki was 8 ± 1 µM (CYP2E1; competitive inhibitor; human liver S9; added: p-nitrophenol substrate).
`O=C(O)c1cc(/N=N/c2ccc(S(=O)(=O)Nc3ccccn3)cc2)ccc1O` has an AUC(0-t) of 319 ± 25 ng·h/mL (Abcg2; substrate; Sprague-Dawley rat, male, plasma; oral, 2 mg/kg, added: 3,6,3',4'-tetramethoxyflavone 5 mg/kg).
With `N=C(N)NC(=N)NC1Cc2ccccc2C1` the IC50 was 53.4 µM and 53 µM (SLC22A2; transporter uptake, inhibitor, radiometric).
`Cc1coc2c1CC[C@@H](C)C2` gave a remaining activity of 115 ± 13% (Cytochrome P450 2A6 (CYP2A6, Homo sapiens, UniProt P11509); inactivator; 5 µM, 0 min, pH 7.4, 30 °C, added: NADPH, glutathione 10 mM).
For `COc1cc(CCc2cnc3ccn(S(=O)(=O)c4c[nH]cn4)c3n2)cc(OC)c1`, the inhibition was 97% (CYP2C9; enzyme activity, inhibitor; human, liver microsomes; 10 µM, 20 min, pH 7.4).
`O=c1[nH]c(=O)c(Cc2cccc(C(F)(F)F)c2)c([C@H]2CC[C@H](c3ccccc3)CC2)[nH]1` has a Cmax of 492 ng/mL (CYP2C19; human, plasma; oral, 600 mg, day 1, single dose, fed, geometric mean).
